Experimental data collected from several papers.
Every numbered part comes from another study and shows a few of its results, in no order. Changes are numbered by the printed parent chain.

Block 1
Target: RING finger protein unkempt homolog, zinc fingers 1-6, GST-SBP tag (UNK, Homo sapiens, UniProt Q9C0B0, residues 30-357)
UniProt Q9C0B0, sequence (30-357, looked up): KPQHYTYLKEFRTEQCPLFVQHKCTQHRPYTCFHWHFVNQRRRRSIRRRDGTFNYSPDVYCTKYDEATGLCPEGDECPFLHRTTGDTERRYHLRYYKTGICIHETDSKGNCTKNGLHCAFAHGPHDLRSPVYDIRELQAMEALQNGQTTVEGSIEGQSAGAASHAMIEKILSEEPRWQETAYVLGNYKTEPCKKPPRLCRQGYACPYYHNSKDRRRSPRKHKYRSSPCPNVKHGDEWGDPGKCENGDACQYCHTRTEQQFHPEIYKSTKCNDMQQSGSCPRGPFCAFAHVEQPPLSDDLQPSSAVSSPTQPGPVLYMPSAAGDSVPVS
Method: RNA Bind-n-Seq
Form: RNA
Matrix: in vitro
Concentration: not given
Notes: RNA with constant flanks, human-mouse chimeric sites, ends assumed
Reference: input RNA pool
Reading: higher = stronger binding
All sequences stand within: GGGAGUUCUACAGUCCGACGAUC … CAACAGAGGAUUGAGCAUCA
Sequence | bound/input enrichment [ratio]
AAAUCAUGUGUGUCCAAUAUUGAAAGUGCUUUAUCUACACUCCAGUAUGUAAGCAGUAUAGUAGUUUCUUUAGAGAAUAGGUCAGCCAUUGUAAAGUACAAUGCAAGCUUAGUCACUCCA | 8.07
AGUACUGACUCAGGCGGUCCCACAACAACCAAGCUCACAGCAGCAGCAUCUUAGUCACAGUAGGGUAGUUUUGGGGCUCUGUGGCCAGGGUUUUAUUCACAUGCAGGUUUGGAAAAUGUA | 1.47
AUAGAUGAAAUUGAUGUGGACCAGGAAGGAAUUGCUGAAAUGAUCCUGGAUGAAAAUGCUAUAGCUCAGGUCCCACGCCCUGGCACAUCUUUGAAGCUCCCUGGCACUAACCAAACAGGA | 0.382
GCACUUGGGAAUGUAAUCAGCGCCUUGGGGGACAAGAGCAAGAGAGCCACCCAUGUCCCUUACAGAGACUCUAAGCUGACAAGACUCUUGCAGGAUUCCCUUGGGGGUAAUAGCCAAACC | 0.168
UUAAUCCCCUUCGUUGCUCCCCCACUUCUCAUGGUAAUAACAAAGUCUUAUAUCCCCGUCCUAGCUUUCACUCAGAUGGCUUAUGGAGCCGGUUUCCUAGCUUUCUUGGGAGGGAUCAGA | 0.451
GAGUCGAGCAAACUUGAAACUACAGAAUAUCUUGCAGCCUCAGUGUUCACUUGCUUGGCGAUAGCAUUGGGGUUUUAUAGGUUCUGGGGAAGUAGUAGACGAUGAUGCUGCCGCUGCUGC | 0.584
AGCACAACCCCAGCAAAGCUAAGAAAUCCUUGUACAAGUGAACAAAACUGCACCAGCCCAUUUAGCUACAAAAAUGUGCUUAGUCUUACUAAUAAAGGAGAGUUUUUCAAUGAACUUGUU | 0.441
GUUCGGCUUUGGGAUCAUGCCACAAUGACAGAAGUGAAAUCUCUGAAUUUUAAUAUGUCUGUUAGCAGCAUGGAGUAUAUUCCUGAAGGAGAGAUUUUGGUUAUAACUUAUGGACGAUCU | 0.353
GGACAUCUGUCAAAUUGUAUUUCCCGUGUGAAACAAGUGAACACUCUGAUACACUUCAUCUGCUUGUACAUCUGUAUUUGUAUAAUAUGUAAAUAUGUUAAUCCAAGCAAUGUGUCACUU | 0.198
AAGCAACUUAUGGAAACAACAAUUCGUUAUCUUGCAGCCUCAGUGUUCACUUGCUUGGCGAUAGCAUUGGGGUUUUAUAGGUUCUGGAAGGAGAACUGACGAUGAUGCUGCCGCUGCUGC | 0.242
UAAGUUAAGCUUUUAAUCUUUGUAAAUUCUUAACAUUUUUAUAUUGCCAUGUUUAUUUUGUUUGGGUAAUUUGGUUCAUUAAGUACAUAGCUAAGGUAAUGAACAUCGUAAUUAUAGAUU | 1.29

Block 2
Target: CCNB3, cyclin fold, Cln2 fusion (human)
Method: yeast growth competition, sequencing
Matrix: yeast
Notes: strong parent motif
Reference: not given
Reading: higher = stronger binding
Starting sequence: BRCA2 docking peptide (human); PSIKRNLLNEFDR
Variant | normalised enrichment score
PSIKRNLLNEFDH [R13H] | 0.755
PSIKRMLLNEFDR [N6M] | -0.075
PSIKRNLCNEFDR [L8C] | 0.282
PSIKRNKLNEFDR [L7K] | -0.182
PSIKRNCLNEFDR [L7C] | 0.402
PSIKKNLLNELDR [R5K F11L] | -0.352
PSIKRNLLNEFMR [D12M] | 1.12
PSIKCNLLNEFDR [R5C] | 0.412
PEIKRNLLNEFDR [S2E] | 0.366
PSIKRNALNEFDR [L7A] | -0.128
PKIKRNLLNEFDR [S2K] | 1.39
PSIKRNLLMEFDR [N9M] | 1.91
PSIKSNLLNEFDR [R5S] | 0.0836
PSIKRNLLKEFDR [N9K] | 1.36
ESIKRNLLNEFDR [P1E] | 1.33
PSIKRPLLNEFDR [N6P] | 1.11
PSIKYNLLNEFDR [R5Y] | -0.127
PHIKRNLLNEFDR [S2H] | 0.875
PSIKTNLLNEFDR [R5T] | -0.649

Block 3
Target: RNA binding protein fox-1 homolog 2, RRM domain, GST-SBP tag (RBFOX2, Homo sapiens, UniProt O43251-10, residues 100-194)
Method: RNA Bind-n-Seq
Form: RNA
Matrix: in vitro
Concentration: 365 nM
Notes: natural RNA segment, single round, ends assumed
Reference: no-protein control
Reading: higher = stronger binding
All sequences stand within: GGGAGUUCUACAGUCCGACGAUC … UGGAAUUCUCGGGUGCCAA
Target sequence (chain): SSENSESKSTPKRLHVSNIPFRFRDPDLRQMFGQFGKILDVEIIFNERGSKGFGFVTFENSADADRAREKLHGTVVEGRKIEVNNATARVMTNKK
Sequence | RBNS enrichment (R)
UAGCUAGAAAAAAAGGUUGGCUCUCAUCAGCCUUAAUUUUGGAAAGCAGCUACUUACCCCUCAGAGAAUAAAGUAUUAUGCAUUCUUGUCAAUUUGAAAACUACAUCUAC | 0.352
AUUGAUAGAGCUCUUUUAUAACUAAAGCAUUUAAUUUUUUGUACUAGAAAAACUUUUGAAUAUUUUAGUUCAUUGUUCAGAUAUGUUAACUCAAGAUUAGUUUAAUUAAA | 1.63
CCUAAGUGAUUCAGAAGAGAGGAGGGAAGUUGUGCACUCUGAAAAUGCAUGAAAAACAAAGGCAAAAACUAGUGGGAAAUGUGUAGAACUGUUAACUGAGAUGGCUUCGA | 16.9
GCUUUAUUUAUCUGUAUGAACACAGAUUUGACAUUACAGCUAAGGAAAUAAUUUGAGUUGAUUCAGAAAUCCUGGCAUGUGACAAUUUUGUUAAAUUACCAAGUUUGGUU | 1.5
UUACUUUUUUUAGAUCCCUGUCUCCAGAAUCUCCCCGAUGCUGUUUUCUACAUCACAGGUCUCUCCCAGGGCUCGUUUUCCAAUCUCCAUCACUAGUCCUUACAGAACAG | 0.486
UCUCUGGUAAUCAUGAACCUUUCUCCUAGGGUGUUUGUUUUGUUUUCAUAAUAAAAAGGGAAAGAAGUUGUGUCUGUGUGGUGCUCUUUGCUGCAAUGCCUCUUUGUAAG | 1.11
CAAUAUUCUCUGUACAUAUUAGCGACAACAGAUUGGAUUUUAUGUUGACAUUUGUUUGGUUAUAGUGCAAUAUAUUUUGUAUGCAAGCAGUUUCAAUAAAGUUUGAUCUU | 0.411
AUCUAAAGUUUGUUAGAUAGCUGCAUGUGGCUUUUUUAAAAAAGCAACAGAAACCUAUCCUCACUGCCCUCCCCAGUCUCUCUUAAAGUUGGAAUUUACCAGUUAAUUAC | 0.426
CCUGCCAGAUAUUGCCCAGCGUGAGGAGCGAUCUCAGCAGGCCUAUAAGAGUCAGCAUGGAGAGCCCCUGCUAAUGGAGUACAGCCGCCAGGAGCUACUCAGGAAGGAAC | 0.931
GUGAAUGACAGCCUGCCACUCCCUGCCACAGGACUCCCUGUGAGCUGUACAGAGGACCAUGGAGCCUUCCUGAAAGGUCUCGGCCAUCUGUUCUUCUCCACCUCCUCAUG | 0.687
GCUGUGGGUUUGUCAUAGAUAGCUCUUAUUAUUUUGAAAUACACCCCAUCAAUCCCUAAUUUAUUGAGAGUUUUUAGCAUGAAGGGUUGUUGAAUUUUGUCAAAGGCUUU | 7.81
CGGUGACAUAUUGGACCAGAAGAGGCACUAGCCAUUUUAAGGAGAGGAAAGAGAAAACUCUGGGGUCAGGGAGAGACCCUACCCCCACCUAAUUAUCCAGCAUAUAUGUA | 0.42

Mixed results
Molecule | target | test | system | conditions | how to read | quantity | value
PhoQ, residues 284 288 289 292 302 303 SCEHLI | PhoP, residues 12 14 15 18 19 QYFSL (Escherichia coli, UniProt P23836) | Sort-seq, item: YFP reporter | E. coli | PhoQ-PhoP variant library, together with: 10 µM Mg2+ | reference: high Mg2+ state, higher = stronger signaling | fold induction | 14.3

For quick reference, copied from above (block 1):
Sequence | bound/input enrichment [ratio]
AGUACUGACUCAGGCGGUCCCACAACAACCAAGCUCACAGCAGCAGCAUCUUAGUCACAGUAGGGUAGUUUUGGGGCUCUGUGGCCAGGGUUUUAUUCACAUGCAGGUUUGGAAAAUGUA | 1.47
AUAGAUGAAAUUGAUGUGGACCAGGAAGGAAUUGCUGAAAUGAUCCUGGAUGAAAAUGCUAUAGCUCAGGUCCCACGCCCUGGCACAUCUUUGAAGCUCCCUGGCACUAACCAAACAGGA | 0.382
GCACUUGGGAAUGUAAUCAGCGCCUUGGGGGACAAGAGCAAGAGAGCCACCCAUGUCCCUUACAGAGACUCUAAGCUGACAAGACUCUUGCAGGAUUCCCUUGGGGGUAAUAGCCAAACC | 0.168
UUAAUCCCCUUCGUUGCUCCCCCACUUCUCAUGGUAAUAACAAAGUCUUAUAUCCCCGUCCUAGCUUUCACUCAGAUGGCUUAUGGAGCCGGUUUCCUAGCUUUCUUGGGAGGGAUCAGA | 0.451
GAGUCGAGCAAACUUGAAACUACAGAAUAUCUUGCAGCCUCAGUGUUCACUUGCUUGGCGAUAGCAUUGGGGUUUUAUAGGUUCUGGGGAAGUAGUAGACGAUGAUGCUGCCGCUGCUGC | 0.584
